Results pooled from the literature.
Every numbered part comes from another study and shows a few of its results, in no order.

Set 1 — technique: RNA Bind-n-Seq; molecule type: RNA; medium: in vitro; tested at: 200 nM; setting: whole 134-nt RNA, ends assumed; with: 150 mM KCl; relative to: input library; reading: higher = stronger binding
Target: Ras GTPase-activating protein-binding protein 1, full length (G3BP1, Homo sapiens, UniProt Q13283)
UniProt Q13283, sequence (whole entry, looked up): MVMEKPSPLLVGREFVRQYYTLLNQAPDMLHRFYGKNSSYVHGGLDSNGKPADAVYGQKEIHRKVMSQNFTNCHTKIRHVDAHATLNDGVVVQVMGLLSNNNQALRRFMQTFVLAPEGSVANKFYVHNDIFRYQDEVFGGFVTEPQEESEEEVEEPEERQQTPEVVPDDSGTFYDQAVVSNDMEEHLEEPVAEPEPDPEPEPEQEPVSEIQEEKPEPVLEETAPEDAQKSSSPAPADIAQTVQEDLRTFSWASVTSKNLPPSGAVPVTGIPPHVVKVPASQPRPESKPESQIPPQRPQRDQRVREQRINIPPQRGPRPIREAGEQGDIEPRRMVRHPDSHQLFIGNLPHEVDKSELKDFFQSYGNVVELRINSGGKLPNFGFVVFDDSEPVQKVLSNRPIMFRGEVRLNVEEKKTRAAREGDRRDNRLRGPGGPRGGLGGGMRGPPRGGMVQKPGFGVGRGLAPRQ
Oligonucleotide | log2 enrichment
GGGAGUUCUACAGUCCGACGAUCGUCCUGUGCUACACAUCGUAUGUACCGAAUCGGCCCCCGGGCCCCCGGGCCCCCGGGGAAAGUAUUAUGUUACGCCGUUCGGAUCUGCACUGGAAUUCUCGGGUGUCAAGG | -0.823
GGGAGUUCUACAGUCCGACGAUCCCUGUGCUACACAUCGUAUGUACCGAAUCGGGGAAAAAAAGGGAAAAAAAGGAAAAAAAGGAAAGUAUUAUGUUACGCCGUUCGGAUCUGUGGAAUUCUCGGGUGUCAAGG | -0.514
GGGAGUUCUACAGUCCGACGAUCCACAGACAACACGCACCCACACAGAAAAAGAGGGAAGGGGUUGGGAUGGGGACAGGGUGCACAGCAGGGCGGGGUAGGACCCCAGCCCCUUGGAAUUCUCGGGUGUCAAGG | 1.84
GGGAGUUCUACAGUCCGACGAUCUCAAGUCCUGUGCUACACAUCGUAUGUACCGAAUCGGAAAGGAGGUUUUUUUGGAAAGUAUUAUGUUACGCCGUUCGGAUCUGCACUUCCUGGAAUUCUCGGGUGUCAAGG | -0.991
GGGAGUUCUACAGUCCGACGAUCUGGAGCCCAACCUGUGCCGCUCAGUCCUCAUUGCCAACACGGUCCGGCAGAUCCAAGAGGAGAUGACGCAGGAUGGGACGUGGCGCACAGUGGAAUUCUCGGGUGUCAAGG | -0.836

Set 2 — technique: RNA Bind-n-Seq; molecule type: RNA; medium: in vitro; tested at: 365 nM; relative to: no-protein control; reading: higher = stronger binding
Target: RNA binding protein fox-1 homolog 2, RRM domain, GST-SBP tag (RBFOX2, Homo sapiens, UniProt O43251-10, residues 100-194)
Setting: natural RNA segment, single round, ends assumed
Target sequence (chain): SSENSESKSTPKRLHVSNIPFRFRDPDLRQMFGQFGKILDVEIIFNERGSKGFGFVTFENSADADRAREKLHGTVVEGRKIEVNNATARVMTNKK
Oligonucleotide | RBNS enrichment (R)
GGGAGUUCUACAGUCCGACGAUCACAGCCCUCUUUUCUCCUGAAUUUUUAAUGCAGAAGUUUGAAUGAAGCAAGGGAAGGCAUGUAGGGACAGGAAAGGAAACAAUGGAAGGAAAGUGAUUCUGUGAAAAGGAUGGAAUUCUCGGGUGCCAA | 4.02
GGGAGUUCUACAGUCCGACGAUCUUGGGGUUUUUCUUUCUUUCUUUUUUGAUUUUGCACUGGACGGUGACGUCAGCCAUGUACAGGAUCCACAGGGGUGGUGUCAAAUGCUAUUGAAAUUGUGUUGAAUUGUAUGGAAUUCUCGGGUGCCAA | 0.468
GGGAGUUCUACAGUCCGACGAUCUUUCAAAUAUUACCAGAUUAUCUCCUUAUGUAAAGGUAAAAUACUGCUUAAAAAUAUUUUCCUCACAAAAUUACUAUCAGGUCUGCCAUAAAUUCUUCCUAAGUUCUCUGUGGAAUUCUCGGGUGCCAA | 0.44
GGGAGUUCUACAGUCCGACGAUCGAGGCACCCGACUACCACCACUCGGAAAGCCGCUAGUCCAGAUCGACUAGGGAGAGGCUUAGAUACUUUAGUGUAUUUAAAGAGCAUUUCAGUUAACUUUUUCAGCUAUUUGGAAUUCUCGGGUGCCAA | 0.275
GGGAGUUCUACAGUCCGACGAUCCCGGAGCCGGCCUUCAGCAAAGGCCUCCUGGGUUCAGUGACAGCCUCAGGCAGGGAUGGUGCUUGAGGCUGGGUGCAGAGAUAUGCCUGCAUGGCUCUCUUGUAGCCAAAUGGAAUUCUCGGGUGCCAA | 0.478

Set 3 — technique: universal PBM; molecule type: double-stranded DNA, one strand shown; medium: in vitro; tested at: 600 nM; reading: higher = stronger binding
Target: Sal-like protein 4, full length isoform A (SALL4, Homo sapiens, UniProt Q9UJQ4, residues 1-1053)
UniProt Q9UJQ4, sequence (whole entry, looked up): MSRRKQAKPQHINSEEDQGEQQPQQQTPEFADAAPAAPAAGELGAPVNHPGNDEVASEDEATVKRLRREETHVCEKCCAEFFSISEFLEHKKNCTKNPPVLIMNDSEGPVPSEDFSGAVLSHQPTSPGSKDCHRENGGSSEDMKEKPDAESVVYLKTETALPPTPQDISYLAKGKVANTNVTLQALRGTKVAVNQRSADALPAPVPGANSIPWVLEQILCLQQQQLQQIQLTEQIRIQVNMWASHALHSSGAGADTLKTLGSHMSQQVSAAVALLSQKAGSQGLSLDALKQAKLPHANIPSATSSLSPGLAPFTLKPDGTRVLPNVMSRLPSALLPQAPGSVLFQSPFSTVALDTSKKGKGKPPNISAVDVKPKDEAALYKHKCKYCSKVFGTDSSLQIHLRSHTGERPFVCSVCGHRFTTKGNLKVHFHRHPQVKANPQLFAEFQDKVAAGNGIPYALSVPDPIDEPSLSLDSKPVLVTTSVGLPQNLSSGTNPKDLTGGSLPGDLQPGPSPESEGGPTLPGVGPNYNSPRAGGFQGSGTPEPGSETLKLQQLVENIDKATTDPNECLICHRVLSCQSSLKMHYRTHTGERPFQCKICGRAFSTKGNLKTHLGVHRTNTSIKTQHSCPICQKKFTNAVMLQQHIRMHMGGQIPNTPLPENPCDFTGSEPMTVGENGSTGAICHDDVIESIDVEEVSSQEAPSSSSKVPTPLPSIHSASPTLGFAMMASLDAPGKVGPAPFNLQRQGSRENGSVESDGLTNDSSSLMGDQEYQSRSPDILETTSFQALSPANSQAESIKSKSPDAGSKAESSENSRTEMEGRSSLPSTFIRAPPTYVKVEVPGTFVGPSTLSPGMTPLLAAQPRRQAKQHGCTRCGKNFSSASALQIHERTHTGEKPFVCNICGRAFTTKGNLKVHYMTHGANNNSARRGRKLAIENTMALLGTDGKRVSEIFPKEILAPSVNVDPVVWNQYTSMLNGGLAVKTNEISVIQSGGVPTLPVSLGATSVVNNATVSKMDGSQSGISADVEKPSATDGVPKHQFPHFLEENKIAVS
Setting: 8-mer, flanks averaged, mean of replicates
Oligonucleotide | E-score
CACATAGA | 0.0964
ACTAGGGC | -0.157
ACAGCAAT | 0.222
AATGAGTG | 0.215
CGGCATGA | 0.0208
ATTAAGTC | 0.299
AGATCTCC | -0.251

Mixed results
Molecule | target | test | test system | setting | how to read | endpoint | value
PhoQ, residues 284 288 289 292 302 303 SLANIV | PhoP, residues 12 14 15 18 19 NQCAL (Escherichia coli, UniProt P23836) | Sort-seq, measured: YFP reporter | E. coli | PhoQ-PhoP variant library, with: 10 µM Mg2+ | relative to: high Mg2+ state, higher = stronger signaling | fold induction | 11.7
